Published values collected from several papers.
Protocols differ between the studies behind these lines.
Method: steady-state kinetics
B1: ATP8A1/CDC50A (Homo sapiens); chain MPTMRRTVSEIRSRAEGYEKTDDVSEKTSLADQEEVRTIFINQPQLTKFCNNHVSTAKYNIITFLPRFLYSQFRRAANSFFLFIALLQQIPDVSPTGRYTTLVPLLFILAVAAIKEIIEDIKRHKADNAVNKKQTQVLRNGAWEIVHWEKVAVGEIVKVTNGEHLPADLISLSSSEPQAMCYIETSNLDGETNLKIRQGLPATSDIKDVDSLMRISGRIECESPNRHLYDFVGNIRLDGHGTVPLGADQILLRGAQLRNTQWVHGIVVYTGHDTKLMQNSTSPPLKLSNVERITNVQILILFCILIAMSLVCSVGSAIWNRRHSGKDWYLNLNYGGASNFGLNFLTFIILFNNLIPISLLVTLEVVKFTQAYFINWDLDMHYEPTDTAAMARTSNLNEELGQVKYIFSDKTGTLTCNVMQFKKCTIAGVAYGHVPEPEDYGCSPDEWQNSQFGDEKTFSDSSLLENLQNNHPTAPIICEFLTMMAVCHTAVPEREGDKIIYQAASPDEGALVRAAKQLNFVFTGRTPDSVIIDSLGQEERYELLNVLEFTSARKRMSVIVRTPSGKLRLYCKGADTVIYDRLAETSKYKEITLKHLEQFATEGLRTLCFAVAEISESDFQEWRAVYQRASTSVQNRLLKLEESYELIEKNLQLLGATAIEDKLQDQVPETIETLMKADIKIWILTGDKQETAINIGHSCKLLKKNMGMIVINEGSLDGTRETLSRHCTTLGDALRKENDFALIIDGKTLKYALTFGVRQYFLDLALSCKAVICCRVSPLQKSEVVEMVKKQVKVVTLAIGDGANDVSMIQTAHVGVGISGNEGLQAANSSDYSIAQFKYLKNLLMIHGAWNYNRVSKCILYCFYKNIVLYIIEIWFAFVNGFSGQILFERWCIGLYNVMFTAMPPLTLGIFERSCRKENMLKYPELYKTSQNALDFNTKVFWVHCLNGLFHSVILFWFPLKALQYGTAFGNGKTSDYLLLGNFVYTFVVITVCLKAGLETSYWTWFSHIAIWGSIALWVVFFGIYSSLWPAIPMAPDMSGEAAMLFSSGVFWMGLLFIPVASLLLDVVYKVIKRTAFKTLVDEVQELEAKSQDPGAVVLGKSLTERAQLLKNVFKKNHVNLYRSESLQQNLLHGYAFSQDENGIVSQSEVIRAYDTTKQRPDEW
B2: STS (Homo sapiens, UniProt P08842); chain HAASRPNIILVMADDLGIGDPGCYGNKTIRTPNIDRLASGGVKLTQHLAASPLCTPSRAAFMTGRYPVRSGMASWSRTGVFLFTASSGGLPTDEITFAKLLKDQGYSTALIGKWHLGMSCHSKTDFCHHPLHHGFNYFYGISLTNLRDCKPGEGSVFTTGFKRLVFLPLQIVGVTLLTLAALNCLGLLHVPLGVFFSLLFLAALILTLFLGFLHYFRPLNCFMMRNYEIIQQPMSYDNLTQRLTVEAAQFIQRNTETPFLLVLSYLHVHTALFSSKDFAGKSQHGVYGDAVEEMDWSVGQILNLLDELRLANDTLIYFTSDQGAHVEEVSSKGEIHGGSNGIYKGGKANNWEGGIRVPGILRWPRVIQAGQKIDEPTSNMDIFPTVAKLAGAPLPEDRIIDGRDLMPLLEGKSQRSDHEFLFHYCNAYLNAVRWHPQNSTSIWKAFFFTPNFNPVGSNGCFATHVCFCFGSYVTHHDPPLLFDISKDPRERNPLTPASEPRFYEILKVMQEAADRHTQTLPEVPDQFSWNNFLWKPWLQLCCPSTGLSCQCDREKQDKRLSR
B3: protein A329L (Streptomyces toyocaensis, UniProt Q8KLK7); chain MTTVLPPLEDTDGLWAALTEAAASVEKLLATLPEHGARSSAERAEIAAAHDAARALRVRFLDTHADAVYDRLTDHRRVHLRLAELVEAAATAFPGLVPTQQQLAVERSLPQAAKEGHEIDQGIFLRAVLRSPLAGPHLLDAMLRPTPRALELLPEFVRTGEVEMEAVHLERRDGVARLTMCRDDRLNAEDGQQVDDMETAVDLALLDPGVRVGLLRGGVMSHPRYRGKRVFSAGINLKYLSQGGISLVDFLMRRELGYIHKLVRGVLTNDDRPGWWHSPRIEKPWVAAVDGFAIGGGAQLLLVFDRVLASSDAYFSLPAAKEGIIPGALNLRLGRFAGPRVSRQVILEGRRIWAKEPEARLLVDEVVEPDELDAAIERSLTRLDGDAVLANRRMLNLADESPDGFRAYMAEFALMQALRLYGHDVIDKVGRFGGRPPA
B4: enzyme H323A (Acetivibrio thermocellus, UniProt A3DJ38); chain MKLTIPELSLVVLIGSSGSGKSTFAKKHFKPTEVISSDFCRGLVSDDENDQTVTGAAFDVLHYIVSKRLQLGKLTVVDATNVQESARKPLIEIAKDYHCFPVAVVFNLPEKVCQERNKNRTDRQVEEYVIRKHTQQLKKSIKGLQREGFRYVYILNSPEEVEEVVFERQPLWNNKKDEHGPFDIIGDIHGCYDELKMLLEKLGYLIEEVEGGVGSGKYRVTHPEGRKVLFLGDLVDRGPKITEVLKLVMGMVKSGIALCVPGNHDVKLLRKLNGRDVQITHGLDRTLEQLAKEPQEFIEEVKAFIDGLVSHYVLDDGKLVVAAAGMKEEFQGRGSGKVREFALYGETTGETDEYGLPVRYDWASDYRGKALVVYGHTPQAEVLKVNNTINIDTGCVFGGKLTAYRYPEREIVDVKALKTYYEPAKPFLPKEDMAERFEARTDNDILDINDVLGKKIITTRLMSSITIHEENSIAALEVMSRFAADPHWLIYLPPTMSPCETSKKEGMLEHPIEAFEYFRTRGVGKVVCEQKHMGSRAVVIVCKDSQVAEKRFGVLDGTAGICYTRTGRHFFDDMQLEAELIDRVRKVLDKSGFWGDFNTDWVCLDCELMPWSAKAQKLLEEQYSAVGISGRVVLDEAVKLLKQASLNKTVSFDVSRQTSGKNADINELLQRFTERSEMMQKYVEAYRKYCWPVNSIDDLKLAPFHILATEGKVHSDKNHIWHMDTIAKYCTQDDSLIMATNHILVDVTDAESVDKGIKWWEDLTASGGEGMVVKPYDFIVKNGRELLQPAVKCRGREYLRIIYGPEYTMDENIERLRNRAVGKKRSLALREFSLGMEALERFVRNEPLYRVHECVFGVLALESEPVDPRL
B5: enzyme L163H/N249W (Thermobifida fusca, UniProt Q47RK4); chain MTDVYILDAVRTPFGRYGGALSGIRPDDLAAHVLRALAERSPGLDPAAVDDVFFGDANGAGEDNRNVARMAALLAGWPTSVPGVTLNRLCGSGMESVIAANRAIAVGDASLAVAGGVESMSRAPWVLPKPAQGFPTGHETLYSTTLGWRMVNPAMPEQWTVSHGESTEQVAATYGISRAEQDAFALRSHERAARAWAEGVFDAEITQIPGAELERDESIRETSAEKLAALKPAFRPDGTITAGNASPLWDGAAALLIGDAAAAERVGREPLARIVSRGVAAVDPDVFGIGPVQAAEIALRRAGIGWDDLSVVELNEAFAAQSLACLKLWPDLDPEIVNPNGGAIAIGHPLGASGARIVGTLAHELHRRGGGWGLAAICIGVGQGLAVVLHR
B6: nitrilase Y142F (Rhodococcus rhodochrous, UniProt A4LA85); chain MVEYTNTFKVAAVQAQPVWFDAAKTVDKTVSIIAEAARNGCELVAFPEVFIPGYPYHIWVDSPLAGMAKFAVRYHENSLTMDSPHVQRLLDAARDHNIAVVVGISERDGGSLYMTQLIIDADGQLVARRRKLKPTHVERSVFGEGNGSDISVYDMPFARLGALNCWEHFQTLTKYAMYSMHEQVHVASWPGMSLYQPEVPAFGVDAQLTATRMYALEGQTFVVCTTQVVTPEAHEFFCENEEQRKLIGRGGGFARIIGPDGRDLATPLAEDEEGILYADIDLSAITLAKQAADPVGHYSRPDVLSLNFNQRRTTPVNTPLSTIHATHTFVPQFGALDGVRELNGADEQRALPSTHSDETDRATASI
B7: enzyme (Vibrio cholerae, UniProt Q9KKP2); chain MNQSSLLAEFGDPITRVENALQALREGRGVLLLDDEDRENEGDIIYAVESLTTAQMALMIRECSGIVCLCLTEAQADRLALPPMVVNNNSANQTAFTVSIEAKHGVTTGVSAQDRVTTIKTAANPQAKPEDLARPGHVFPLRARAGGVLARRGHTEGTVDLMQMAGLQPAGVLCELTNPDGSMAKTPEIIEFGKLHNMPVLTIEDMVQYRIQFDLKLA

Molecule	substrate	pH	temperature	setting	added	Km [µM]
B1 (ATP8A1/CDC50A)	CCCCCCCC/C=C\CCCCCCCC(=O)OC[C@H](COP(=O)(O)OC[C@H](N)C(=O)O)OC(=O)CCCCCCC/C=C\CCCCCCCC	pH 7.5	37 °C	–	ATP 5 mM, MgCl2 12.5 mM, PC	59.1
rfbC (Campylobacter jejuni, UniProt Q0P8I4)	Nc1nc2c(ncn2[C@@H]2O[C@H](COP(=O)(O)OP(=O)(O)O[C@H]3O[C@H]([C@H](O)CO)C(=O)[C@H](O)[C@@H]3O)[C@@H](O)[C@H]2O)c(=O)[nH]1	pH 7.5	30 °C	–	–	136
B2 (STS)	[H][C@@]12CC=C3C[C@@H](OS(=O)(=O)O)CC[C@]3(C)[C@@]1([H])CC[C@]1(C)C(=O)CC[C@@]21[H]	pH 7	37 °C	not purified	–	2.85
B3 (protein A329L)	CC(C)(COP(=O)(O)OP(=O)(O)OC[C@H]1O[C@@H](n2cnc3c(N)ncnc32)[C@H](O)[C@@H]1OP(=O)(O)O)[C@@H](O)C(=O)NCCC(=O)NCCSC(=O)Cc1cc(O)cc(O)c1	pH 7.5	24 °C	–	O2	6.6
OXA-48 (Klebsiella pneumoniae, UniProt Q6XEC0)	C[C@@H](O)[C@H]1C(=O)N2C(C(=O)O)=C(S[C@@H]3CN[C@H](CNS(N)(=O)=O)C3)[C@H](C)[C@H]12	pH 7.2	30 °C	–	–	4.1
L-lactate oxidase (Aerococcus viridans, UniProt Q44467)	O=C1C(Cl)=CC(=Nc2ccc(O)cc2)C=C1Cl	pH 6.5	22 °C	varied electron acceptor, apparent	L-lactic acid 200 mM	1600
B4 (enzyme H323A)	Nc1ncnc2c1ncn2[C@@H]1O[C@H](CO)[C@H]2OP(=O)(O)O[C@H]21	pH 7.5	45 °C	–	–	32000
dmhA (Campylobacter jejuni, UniProt Q5M6Q7)	Nc1nc2c(ncn2[C@@H]2O[C@H](COP(=O)(O)OP(=O)(O)O[C@H]3O[C@H]([C@H](O)CO)[C@@H](O)[C@H](O)[C@@H]3O)[C@@H](O)[C@H]2O)c(=O)[nH]1	pH 7.5	30 °C	–	–	61
ω-transaminase A60V/E38Q/F86L/I154V/M128F/P9A/R417L/S87N/W58M (Pseudomonas jessenii)	CCCC(=O)c1ccccc1	pH 8	56 °C	apparent	isopropylamine 1 M, PLP 0.05 mM	1500
B5 (enzyme L163H/N249W)	CC(=O)SCCNC(=O)CCNC(=O)[C@H](O)C(C)(C)COP(=O)(O)OP(=O)(O)OC[C@H]1O[C@@H](n2cnc3c(N)ncnc32)[C@H](O)[C@@H]1OP(=O)(O)O	pH 7.4	37 °C	–	–	2190
B6 (nitrilase Y142F)	N#Cc1ccccn1	pH 7.5	25 °C	–	–	1560
B7 (enzyme)	O=C(CO)[C@H](O)[C@H](O)COP(=O)(O)O	pH 7.5	–	–	–	277

A few entries again:
Molecule	substrate	pH	temperature	setting	added	Km [µM]
B1 (ATP8A1/CDC50A)	CCCCCCCC/C=C\CCCCCCCC(=O)OC[C@H](COP(=O)(O)OC[C@H](N)C(=O)O)OC(=O)CCCCCCC/C=C\CCCCCCCC	pH 7.5	37 °C	–	ATP 5 mM, MgCl2 12.5 mM, PC	59.1
